# Results collected from several papers.
# Every numbered part comes from another study and shows a few of its results, in no order.
# Sequence of UniProt Q9H093 (whole entry, looked up): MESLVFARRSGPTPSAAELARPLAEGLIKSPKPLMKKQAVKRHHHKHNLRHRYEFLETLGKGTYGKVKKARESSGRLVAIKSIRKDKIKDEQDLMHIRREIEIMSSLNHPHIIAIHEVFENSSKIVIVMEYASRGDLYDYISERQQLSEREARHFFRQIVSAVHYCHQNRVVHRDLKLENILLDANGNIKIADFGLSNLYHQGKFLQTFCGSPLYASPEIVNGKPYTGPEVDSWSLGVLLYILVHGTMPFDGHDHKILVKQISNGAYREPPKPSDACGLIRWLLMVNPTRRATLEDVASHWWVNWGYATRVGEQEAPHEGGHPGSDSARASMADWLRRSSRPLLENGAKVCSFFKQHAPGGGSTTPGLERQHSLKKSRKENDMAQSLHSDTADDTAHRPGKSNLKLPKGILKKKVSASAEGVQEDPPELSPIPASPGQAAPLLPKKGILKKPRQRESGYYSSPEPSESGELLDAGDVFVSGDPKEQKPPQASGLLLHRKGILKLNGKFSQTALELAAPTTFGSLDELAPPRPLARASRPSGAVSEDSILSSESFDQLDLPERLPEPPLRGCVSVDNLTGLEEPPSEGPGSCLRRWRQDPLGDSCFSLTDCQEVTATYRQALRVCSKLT
# Sequence of UniProt P45983 (whole entry, looked up): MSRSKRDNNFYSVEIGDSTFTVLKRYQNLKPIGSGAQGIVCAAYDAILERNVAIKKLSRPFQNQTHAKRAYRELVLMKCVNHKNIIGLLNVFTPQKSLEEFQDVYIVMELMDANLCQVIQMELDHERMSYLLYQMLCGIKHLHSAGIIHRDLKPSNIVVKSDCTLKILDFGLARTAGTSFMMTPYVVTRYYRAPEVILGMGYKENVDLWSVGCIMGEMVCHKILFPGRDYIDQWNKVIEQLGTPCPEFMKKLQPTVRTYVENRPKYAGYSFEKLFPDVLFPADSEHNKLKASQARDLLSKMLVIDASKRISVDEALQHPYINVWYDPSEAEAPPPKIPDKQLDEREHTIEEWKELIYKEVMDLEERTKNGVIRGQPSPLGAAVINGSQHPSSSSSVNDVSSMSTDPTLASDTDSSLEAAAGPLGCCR
# Sequence of UniProt P29597 (whole entry, looked up): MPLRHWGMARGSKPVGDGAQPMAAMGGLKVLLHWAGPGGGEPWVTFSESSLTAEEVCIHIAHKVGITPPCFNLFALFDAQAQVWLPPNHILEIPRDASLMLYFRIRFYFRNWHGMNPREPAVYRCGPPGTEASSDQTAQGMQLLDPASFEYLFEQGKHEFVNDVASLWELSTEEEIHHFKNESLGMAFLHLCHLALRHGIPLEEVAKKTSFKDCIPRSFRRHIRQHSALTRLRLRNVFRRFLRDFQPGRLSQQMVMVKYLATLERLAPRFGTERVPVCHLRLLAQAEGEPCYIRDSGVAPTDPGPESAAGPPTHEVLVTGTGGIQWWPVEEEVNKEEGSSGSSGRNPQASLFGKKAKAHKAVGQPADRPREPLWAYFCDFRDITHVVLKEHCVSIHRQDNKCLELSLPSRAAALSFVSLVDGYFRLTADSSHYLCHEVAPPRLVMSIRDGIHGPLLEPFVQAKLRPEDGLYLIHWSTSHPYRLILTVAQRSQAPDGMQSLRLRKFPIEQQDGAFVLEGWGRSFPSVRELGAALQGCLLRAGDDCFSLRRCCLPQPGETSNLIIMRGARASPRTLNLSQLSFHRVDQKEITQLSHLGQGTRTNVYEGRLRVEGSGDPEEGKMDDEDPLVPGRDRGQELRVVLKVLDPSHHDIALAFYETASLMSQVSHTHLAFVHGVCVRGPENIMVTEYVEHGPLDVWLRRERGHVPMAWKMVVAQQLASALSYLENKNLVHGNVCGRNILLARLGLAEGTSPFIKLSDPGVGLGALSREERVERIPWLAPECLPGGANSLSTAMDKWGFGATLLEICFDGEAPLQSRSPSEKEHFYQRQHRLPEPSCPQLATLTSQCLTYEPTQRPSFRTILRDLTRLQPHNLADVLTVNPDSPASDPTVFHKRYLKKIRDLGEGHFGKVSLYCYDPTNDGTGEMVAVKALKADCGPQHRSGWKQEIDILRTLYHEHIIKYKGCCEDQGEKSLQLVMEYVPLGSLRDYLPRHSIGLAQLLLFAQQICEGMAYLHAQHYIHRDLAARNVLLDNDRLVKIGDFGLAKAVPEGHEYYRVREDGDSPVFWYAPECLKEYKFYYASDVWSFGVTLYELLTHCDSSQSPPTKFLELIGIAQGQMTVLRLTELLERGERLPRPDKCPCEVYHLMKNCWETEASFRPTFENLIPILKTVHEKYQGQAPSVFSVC
# Sequence of UniProt Q8IW41 (whole entry, looked up): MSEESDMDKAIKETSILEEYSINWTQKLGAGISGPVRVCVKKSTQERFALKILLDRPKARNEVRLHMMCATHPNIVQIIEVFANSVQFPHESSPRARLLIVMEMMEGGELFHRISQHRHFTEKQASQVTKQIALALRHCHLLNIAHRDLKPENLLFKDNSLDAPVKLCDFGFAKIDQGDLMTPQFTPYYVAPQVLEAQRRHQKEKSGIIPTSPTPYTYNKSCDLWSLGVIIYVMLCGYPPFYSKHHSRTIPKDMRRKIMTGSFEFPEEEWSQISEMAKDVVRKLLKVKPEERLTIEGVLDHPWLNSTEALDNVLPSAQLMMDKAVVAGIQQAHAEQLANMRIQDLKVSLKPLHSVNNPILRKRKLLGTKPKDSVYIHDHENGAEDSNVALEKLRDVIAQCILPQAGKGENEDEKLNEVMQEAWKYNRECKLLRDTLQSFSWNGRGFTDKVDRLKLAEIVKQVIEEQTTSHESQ
# Sequence of UniProt Q8TDX7 (whole entry, looked up): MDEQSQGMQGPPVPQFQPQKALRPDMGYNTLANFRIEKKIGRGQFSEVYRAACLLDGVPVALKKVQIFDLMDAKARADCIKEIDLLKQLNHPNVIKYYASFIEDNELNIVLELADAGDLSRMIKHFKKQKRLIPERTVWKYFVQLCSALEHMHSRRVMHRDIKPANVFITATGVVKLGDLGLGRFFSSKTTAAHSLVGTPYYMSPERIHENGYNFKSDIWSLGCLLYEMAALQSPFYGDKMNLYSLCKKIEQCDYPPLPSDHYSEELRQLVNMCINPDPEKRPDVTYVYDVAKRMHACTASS
# Sequence of UniProt P29322 (whole entry, looked up): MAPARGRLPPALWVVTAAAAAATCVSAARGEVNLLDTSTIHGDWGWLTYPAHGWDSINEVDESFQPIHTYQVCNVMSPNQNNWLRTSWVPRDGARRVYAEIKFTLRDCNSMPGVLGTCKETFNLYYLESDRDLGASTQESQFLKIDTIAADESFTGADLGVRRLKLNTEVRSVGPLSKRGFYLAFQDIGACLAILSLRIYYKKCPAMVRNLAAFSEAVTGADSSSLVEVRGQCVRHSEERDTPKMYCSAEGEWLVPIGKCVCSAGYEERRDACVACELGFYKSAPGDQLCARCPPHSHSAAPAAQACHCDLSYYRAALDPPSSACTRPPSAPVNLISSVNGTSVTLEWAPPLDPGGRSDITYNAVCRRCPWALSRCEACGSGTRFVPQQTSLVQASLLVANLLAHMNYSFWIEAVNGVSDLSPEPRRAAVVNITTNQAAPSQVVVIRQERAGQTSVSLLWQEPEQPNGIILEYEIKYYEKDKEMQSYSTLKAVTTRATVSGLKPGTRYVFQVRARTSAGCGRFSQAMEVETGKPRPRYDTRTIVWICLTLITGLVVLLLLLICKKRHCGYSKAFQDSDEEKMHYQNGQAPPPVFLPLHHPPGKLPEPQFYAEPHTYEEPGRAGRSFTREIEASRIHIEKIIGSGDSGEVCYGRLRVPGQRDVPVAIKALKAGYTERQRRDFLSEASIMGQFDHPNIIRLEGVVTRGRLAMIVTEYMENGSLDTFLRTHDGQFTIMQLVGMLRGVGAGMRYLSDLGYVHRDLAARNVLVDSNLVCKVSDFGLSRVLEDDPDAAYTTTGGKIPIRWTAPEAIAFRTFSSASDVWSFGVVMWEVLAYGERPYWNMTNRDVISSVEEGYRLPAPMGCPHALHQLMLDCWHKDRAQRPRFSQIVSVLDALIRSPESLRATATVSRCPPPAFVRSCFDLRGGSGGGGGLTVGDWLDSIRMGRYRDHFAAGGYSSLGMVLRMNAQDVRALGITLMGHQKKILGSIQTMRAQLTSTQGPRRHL

# Sample 1
# Structure (SMILES): O=C1CCC(N2Cc3c(ccc4c3OCC43CCN(Cc4ccccc4)CC3)C2=O)C(=O)N1 (stereo not drawn)
# Medium: plasma
test system,conditions,concentration [ng/mL]
male Sprague-Dawley rat,"intravenous, 1 mg/kg, 30 min",251
male CD-1 mouse,"intravenous, 1 mg/kg, 2 h",58.6
male CD-1 mouse,"intravenous, 1 mg/kg, 4.98 min",299
male Sprague-Dawley rat,"intravenous, 1 mg/kg, 6 h",29.5
male Sprague-Dawley rat,"intravenous, 1 mg/kg, 1 h",181
male CD-1 mouse,"intravenous, 1 mg/kg, 6 h",8.4
male CD-1 mouse,"intravenous, 1 mg/kg, 8 h",5.07
male Sprague-Dawley rat,"intravenous, 1 mg/kg, 4.98 min",373
male Sprague-Dawley rat,"oral, 3 mg/kg, 4 h",239
male Sprague-Dawley rat,"oral, 3 mg/kg, 6 h",110
male CD-1 mouse,"oral, 3 mg/kg, 1 h",370
male CD-1 mouse,"oral, 3 mg/kg, 2 h",230
male Sprague-Dawley rat,"intravenous, 1 mg/kg, 15 min",354
male CD-1 mouse,"oral, 3 mg/kg, 6 h",46.1
male CD-1 mouse,"intravenous, 1 mg/kg, 4 h",21.8
male Sprague-Dawley rat,"intravenous, 1 mg/kg, 4 h",67.4
male CD-1 mouse,"oral, 3 mg/kg, 8 h",24.8
male CD-1 mouse,"intravenous, 1 mg/kg, 1 h",118
male Sprague-Dawley rat,"oral, 3 mg/kg, 15 min",34.1
male CD-1 mouse,"oral, 3 mg/kg, 30 min",376

# Sample 2
# Target: Eukaryotic initiation factor 4A-III (Homo sapiens, UniProt P38919)
# Sequence of UniProt P38919 (whole entry, looked up): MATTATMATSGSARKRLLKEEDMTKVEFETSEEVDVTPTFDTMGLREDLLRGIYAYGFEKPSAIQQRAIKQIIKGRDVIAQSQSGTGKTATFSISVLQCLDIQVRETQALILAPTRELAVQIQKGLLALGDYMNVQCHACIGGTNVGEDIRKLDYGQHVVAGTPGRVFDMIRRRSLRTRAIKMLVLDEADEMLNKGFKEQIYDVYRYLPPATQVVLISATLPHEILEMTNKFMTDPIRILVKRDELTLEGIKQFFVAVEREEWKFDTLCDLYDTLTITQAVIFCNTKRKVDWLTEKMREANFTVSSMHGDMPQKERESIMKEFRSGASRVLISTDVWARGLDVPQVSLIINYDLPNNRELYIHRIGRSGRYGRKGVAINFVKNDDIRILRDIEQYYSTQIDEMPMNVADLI
# Observed: RNA clamping
# Technique: fluorescence polarization
# Tested at: concentration not given
# Added: FAM-labelled poly r(AG)8 RNA
SMILES,fluorescence polarization change
COc1ccc([C@@]23Oc4cc(OC)cc(OC)c4[C@]2(O)c2nc(-c4ccccc4Cl)[nH]c(=O)c2[C@H]3c2ccccc2)cc1,24.8 mP
COC(=O)[C@@H]1[C@@H](c2ccccc2)C2(c3ccc(OC)cc3)C(=O)C1(O)c1ccccc1N2C (stereo partly drawn),-10.1 mP
COC(=O)[C@@H]1[C@@H](c2ccccc2)[C@@]2(c3ccc(Br)cc3)C(=O)[C@]1(O)c1c(OC)cc(OC)cc1N2C,-5.1 mP
COC(=O)[C@@H]1[C@@H](c2ccccc2)[C@]2(c3ccc(OC)cc3)Oc3cc(OC)cc(OC)c3[C@@]1(O)[C@H]2O,-3.1 mP
COC(=O)[C@H]1[C@@H](c2ccccc2)C2(c3ccc(OC)cc3)Oc3cc(OC)cc(OC)c3[C@@]1(O)C2=O,-5.8 mP
COc1ccc([C@@]23Oc4cc(OC)cc(OC)c4[C@]2(O)c2nc(C(C)C)[nH]c(=O)c2[C@H]3c2ccccc2)cc1,21.2 mP
COC(=O)[C@@H]1[C@@H](c2ccccc2)[C@]2(c3ccc(OC)cc3)Oc3cc(OC)cc(OC)c3[C@@]23OC(c2ccc(Cl)nc2)=N[C@@]13O,9.7 mP
COc1ccc([C@@]23Oc4cc(OC)cc(OC)c4[C@]2(O)c2nc(-c4ccc(O)cc4)[nH]c(=O)c2[C@H]3c2ccccc2)cc1,5.9 mP

# Sample 3
# SMILES: N/C(=N\[N+](=O)[O-])N/N=C\c1ccc(-c2cccc([N+](=O)[O-])c2)o1
# Observed: enzyme activity
# Action: inhibitor
# Tested at: 0.5 µM
# Relative to: control
target,remaining activity [%]
"EPHA8 (Homo sapiens, UniProt P29322)",102
"NEK7 (Homo sapiens, UniProt Q8TDX7)",102
"MAPKAPK5 (Homo sapiens, UniProt Q8IW41)",94.6
"TYK2 (Homo sapiens, UniProt P29597)",110
"NUAK2 (Homo sapiens, UniProt Q9H093)",95.2
"MAPK8 (Homo sapiens, UniProt P45983)",91.2
"MYLK2 (Homo sapiens, UniProt Q9H1R3)",100

# Sample 4
# Target: Synaptic vesicular amine transporter (SLC18A2, Homo sapiens, UniProt Q05940)
# Sequence of UniProt Q05940 (whole entry, looked up): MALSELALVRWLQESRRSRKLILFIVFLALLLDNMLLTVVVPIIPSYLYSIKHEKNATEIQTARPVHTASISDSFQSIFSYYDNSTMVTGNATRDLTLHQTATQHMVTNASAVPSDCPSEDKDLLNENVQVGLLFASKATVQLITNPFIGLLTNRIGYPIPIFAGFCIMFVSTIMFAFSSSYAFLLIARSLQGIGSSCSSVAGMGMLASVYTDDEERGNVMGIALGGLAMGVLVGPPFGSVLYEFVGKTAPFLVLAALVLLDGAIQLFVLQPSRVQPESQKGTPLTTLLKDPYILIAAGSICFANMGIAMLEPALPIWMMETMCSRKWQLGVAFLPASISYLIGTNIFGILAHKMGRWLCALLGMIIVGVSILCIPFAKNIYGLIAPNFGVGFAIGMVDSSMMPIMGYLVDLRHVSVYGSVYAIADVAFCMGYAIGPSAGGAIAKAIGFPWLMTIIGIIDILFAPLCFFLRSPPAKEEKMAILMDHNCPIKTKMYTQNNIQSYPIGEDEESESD
# Action: inhibitor
# Notes: literature data
SMILES,IC50 [µM]
CC(CCc1ccccc1)NC(C)C(O)c1ccc(O)cc1 (stereo not drawn),0.35
COc1cc2c(cc1OC)[C@H](C)NCC2,> 10
C[N+]1(C)[C@@H]2C[C@@H](OC(=O)[C@H](CO)c3ccccc3)C[C@H]1[C@@H]1O[C@@H]12,> 10
COc1ccc(CC2c3cc(OC)c(OC)cc3CCN2C)cc1OC (stereo not drawn),> 10
Cc1ncc2n1-c1ccc(Cl)cc1C(c1ccccc1F)=NC2,> 10
CN[C@@H](C)Cc1ccccc1,13.3
N#Cc1ccccc1-c1cc(-c2ccccn2)cn(-c2ccccc2)c1=O,> 10

# A few entries again (sample 1):
test system,conditions,concentration [ng/mL]
male Sprague-Dawley rat,"oral, 3 mg/kg, 4 h",239
male Sprague-Dawley rat,"oral, 3 mg/kg, 6 h",110
male CD-1 mouse,"oral, 3 mg/kg, 1 h",370
male CD-1 mouse,"oral, 3 mg/kg, 2 h",230
